Measured values gathered from unrelated publications.
Lines come from different studies, so protocols differ. Values joined by “and” are separate records of one study, mostly repeats; a detail may differ.
Target: Serine/threonine-protein kinase N2 (PKN2, Homo sapiens, UniProt Q16513)

| Structure (SMILES) | test | system | conditions | scale | quantity | result |
| --- | --- | --- | --- | --- | --- | --- |
| CN1CC[C@@H](COc2cnc(C#N)cc2-c2ccn3nc(NC(=O)C4CC4)cc3c2)C1 | enzyme activity, inhibitor | – | 1 µM | – | inhibition | -10% |
| Cc1cccc(-c2ccc3nc(NC(=O)C4CCOCC4)nn3c2)c1 | enzyme activity, Dundee kinase panel | – | 10 µM | – | remaining activity | 103% |
| CCn1cc(C(=O)O)c(=O)c2c(N)c(F)c(NC3CCCCC3)cc21 | kinase activity | – | 0.1 µM, together with: ATP at Km | – | inhibition | 6.1% |
| CNC1C[S+]2CC[S+]3CC[S+](C1)[Ru-4]321([N]=C=S)[n]2c3ccc(OC)cc3c3c4c(c5cc(F)c[n+]1c5c32)C(=O)NC4=O (stereo not shown) | KinomeScan | – | 0.1 µM | baseline: untreated | remaining binding | 94% |
| NC(=O)[C@@H](O)C[C@H]1CCc2sc3ncnc(O[C@H]4CC[C@H](N5CCOCC5)CC4)c3c21 | enzyme activity, inhibitor | – | 10 µM | – | inhibition | 3% |
| CN1CCN(Cc2ccc(-c3ccc(CO[C@H]4CCC[C@@H]4NC(=O)c4cc(-c5cnn(C)c5)cnc4N)cc3)cc2)CC1 | enzyme activity, inhibitor | – | 0.1 µM | – | inhibition | 20% |
| C=CC(=O)Nc1cccc(-c2cnc3[nH]cc(C(=O)NC(C)(C)C)c3n2)c1 | kinase activity | – | 0.1 µM | – | inhibition | 18% and 17% |
| CNC(=O)C[C@H](Cc1ccc(C#N)cc1)NC(=O)c1cc(-c2ccc(CN[C@H](C)c3ccc(C)cc3)o2)ccc1Cl | enzyme activity, inhibitor | – | 1 µM | – | activity vs control | 79% |
| C=CC(=O)N1CCc2ccc(-n3c(=O)ccc4cnc5ccc(-c6cnn(C)c6)cc5c43)cc21 | KINOMEscan | – | 1 µM | baseline: DMSO control | remaining binding | 94% |
| COc1c(Cl)cccc1Nc1c(-c2ccncc2C#C[C@@]2(C)CCCN2C(=O)/C=C/CN(C)C)[nH]c2c1C(=O)NCC2 | binding, competition with immobilised ligand | – | 3 µM | – | remaining binding | 100% |
| Cc1cnc2nc1Nc1cccc(c1)COC/C=C/COCc1cc(ccc1OCCN1CCOCC1)N2 | binding | – | 0.1 µM | – | remaining binding | 92% |
| COc1cc(Nc2nccc(-c3cnn4nc(OC)ccc34)n2)cc(C(F)(F)F)c1 | binding, competition with immobilised ligand | – | 1 µM | – | remaining binding | 100% |
| c1ccc2c(Nc3cc(C4CCC4)[nH]n3)nc(Nc3ccc4nc[nH]c4c3)nc2c1 | enzyme activity, inhibitor | – | 0.25 µM | – | remaining activity | 18% |
| COc1ccc(NC(=O)Nc2ccc3c(c2)C(=O)N(C(C)CO)CC(C)C(CN(C)Cc2ccc4c(c2)OCO4)O3)cc1 (stereo not shown) | kinase activity | – | 0.03 µM | baseline: control | remaining activity | 95% |
| CC(C)=CC1OC(C)(C)C2C=C3C(=O)C(Cl)=CC(O)C3C3C(O)C4OC4C(=O)C132 (stereo not shown) | cell-free assay, competition with immobilised ligand | – | 10 µM | – | remaining binding | 95% |
| Cc1cccc(O[C@H]2CCC[C@@H](C(C)CNCc3ccncc3)C2)c1 (relative stereo) | enzyme activity, inhibitor | – | 1 µM | – | inhibition | 1% |
| N[C@H]1CC[C@H](Nc2nccc(-c3cccnc3Oc3ccc(NC(=O)NC4CC4)c4ccccc34)n2)CC1 | kinobead competition pulldown | HEK293/HCT116 lysate mixture | 10 µM, 1 h, 4 °C | lower = stronger competition | log2 LFQ intensity | 18.6 and 20.4 and 19.9 and 18.9 |
| Nc1ncc(-c2cc(-c3cnn(CC(F)(F)F)c3)ncc2F)nc1C(=O)NC1CNCC(F)C1 (stereo not shown) | enzyme activity | – | 1 µM | baseline: DMSO control | remaining activity | 96.2% |
| Cc1ccc(C)c(-c2ccc3nc(NC(=O)C4CCCCC4)nn3c2)c1 | enzyme activity, Dundee kinase panel | – | 10 µM | – | remaining activity | 79% |

A few entries again:
| Structure (SMILES) | test | system | conditions | scale | quantity | result |
| --- | --- | --- | --- | --- | --- | --- |
| CN1CCN(Cc2ccc(-c3ccc(CO[C@H]4CCC[C@@H]4NC(=O)c4cc(-c5cnn(C)c5)cnc4N)cc3)cc2)CC1 | enzyme activity, inhibitor | – | 0.1 µM | – | inhibition | 20% |
| C=CC(=O)Nc1cccc(-c2cnc3[nH]cc(C(=O)NC(C)(C)C)c3n2)c1 | kinase activity | – | 0.1 µM | – | inhibition | 18% and 17% |
